Results pooled from the literature.
± gives the spread as reported.

| Compound | test | system | setting | scale | quantity | result |
| --- | --- | --- | --- | --- | --- | --- |
| N#Cc1c(O)c(Cl)c(Cl)c(C#N)c1Cl |  | human, plasma | dose not given, 0 h, ABCG2 p.Q141K heterozygous | relative to: homozygous reference allele | plasma concentration | increased |
| CC(COC(=O)c1ccccc1)OC(=O)C(N)Cc1ccccc1 (mixture of isomers) |  |  | pH 6 or lower |  | half-life | > 30 h |
| CCCCCCCCCCCCC(=O)O.O=C1CCCC2C3CCCN4CCCC(CN12)C34 (stereo not drawn) | electrical conductivity | water | 308.15 K |  | entropic term −TΔS of aggregation | -33.6 kJ/mol |
| COc1ccc(C)cc1NC(=O)OC1CC2CCCC(C1)N2Cc1ccc(CC[18F])cc1 (stereo not drawn) |  | BALB/c mice, EMT6 tumour | 5 min | relative to: tumour over fat | tumour to tissue ratio | 0.65 |
| CC[C@H](C)[C@@H]1NC(=O)[C@H](Cc2ccccc2)NC(=O)[C@H](CC(=O)O)NC(=O)[C@H](CCCNC(=N)N)NC(=O)[C@H](Cc2ccccc2)NC(=O)[C@H](Cc2ccccc2)NC(=O)[C@@H](NC(=O)[C@H](CO)NC(=O)[C@H](CC(C)C)NC(=O)[C@H](CCCNC(=N)N)NC(=O)[C@H](CCSC)NC(=O)[C@H](C)N)CCCCNC(=O)NCCCC[C@@H](C(=O)N[C@@H](CCC(N)=O)C(=O)N[C@@H](CCCNC(=N)N)C(=O)N[C@@H](CCCCN)C(=O)N[C@@H](CCCCN)C(=O)O)NC1=O | circular dichroism | 20% TFE in PBS | 200 µM, pH 7.4, 25 °C |  | helicity | 6% |
| CC(C)C[C@H](NC(=O)[C@H](CCCCN)NC(=O)[C@H](CCC(=O)O)NC(=O)[C@H](C)NC(=O)[C@@H](NC(=O)[C@H](CCCCN)NC(=O)[C@H](CC(=O)O)NC(=O)[C@H](Cc1ccc(O)cc1)NC(=O)[C@H](Cc1ccccc1)NC(=O)[C@H](C)NC(=O)[C@H](CCCCN)NC(=O)[C@H](CC(C)C)NC(=O)[C@H](Cc1c[nH]c2ccccc12)NC(=O)[C@@H](N)CC(=O)O)C(C)C)C(=O)N[C@@H](CCCCN)C(=O)N[C@@H](CCC(=O)O)C(=O)N[C@@H](C)C(=O)N[C@@H](Cc1ccccc1)C(=O)N1CCC[C@H]1C(=O)N[C@@H](CC(=O)O)C(=O)N[C@@H](Cc1c[nH]c2ccccc12)C(=O)N[C@@H](C)C(=O)N[C@@H](CCCCN)C(=O)N[C@@H](C)C(=O)N[C@@H](C)C(=O)N[C@@H](Cc1ccc(O)cc1)C(=O)N[C@@H](CC(=O)O)C(=O)N[C@@H](CCCCN)C(=O)N[C@@H](C)C(=O)N[C@@H](C)C(=O)N[C@@H](CCC(=O)O)C(=O)N[C@@H](CCCCN)C(=O)N[C@@H](C)C(=O)N[C@@H](CCCCN)C(=O)N[C@@H](CCC(=O)O)C(=O)N[C@@H](C)C(=O)N[C@@H](C)C(=O)O |  | cynomolgus monkey female, plasma | intravenous infusion, 25 mg/kg, day 1, 30 min infusion |  | Tmax | 0 h |
| CCN(Cc1ccccc1)C(=O)CCc1nc(CN2CCN(C(=O)Cc3ccc(OC)c(OC)c3)CC2)no1 |  | rat, kidney | intravenous, 1 mg/kg, 15 min, single dose |  | concentration | < 1.8 ng/g |
| CN(C)C(CNC(=O)Nc1cc(C(F)(F)F)ccc1N1CCOCC1)c1ccncc1 (stereo not drawn) |  | mouse, serum | intraperitoneal, 240 mg/kg single dose |  | serum iron | 139 µg/dL |
| [2H]C([2H])([2H])C([2H])([2H])C([2H])([2H])OC(C(=O)OC1CCNCC1)(c1ccccc1)c1ccccc1 | item: nasopharyngitis | healthy Japanese male | oral, 12 mg, 16 days, multiple ascending dose |  | adverse events | 0% |
| O=P1(NCCCl)NCCCO1 (stereo not drawn) |  | rat, plasma | intravenous, 10 mg/kg, with: ketoconazole 20 mg/kg oral 50 min before |  | Tmax | 2.25 ± 0.88 h |
| CC[C@H](C)C(=O)N1CCC(NC(=O)Nc2ccc(OC(F)(F)F)c(F)c2)CC1 |  | healthy volunteers, both sexes | oral, 8 mg single dose, fasted state |  | participants with any Moderate TEAE | 0% |
| CCN(CC)c1ccc2c(-c3ccccc3C(=O)OCCC[18F])c3ccc(=[N+](CC)CC)cc-3oc2c1 |  | rat | dose not given, 60 min post injection | relative to: heart over blood | heart to blood ratio | 26.4 |
| CN[C@](C)(C[18F])C(=O)O |  | SCID mouse SK-OV-3 xenograft, pancreas | 60 min post injection |  | tissue uptake | 27 ± 2.1 %ID/g |
| [3H]c1sc(C)nc1C=C(C)C1CC2C(CCCC(C)C(O)C(C)C(=O)C(C)(C)C(O)CC(=O)O1)N2CCO (stereo not drawn) | whole-body autoradiography | CD2F1 mice, M109 FR− tumour periphery | intravenous, 2.2 nmol/kg, 0.5 h |  | radioactivity in tissue | 3.3 ± 1 µg-eq/g |
| COc1ccc(F)cc1S(=O)(=O)Nc1cnc2c(c1)C(=O)NCCO2 |  | male cynomolgus monkey, plasma | oral vs intravenous, 0.3 mg/kg |  | oral bioavailability | 73.9% |
| NCCCC[C@H](NC(=O)[C@H](Cc1ccccc1)NC(=O)[C@H](CCCCN)NC(=O)[C@H](Cc1ccccc1)NC(=O)[C@H](CCC(=O)O)NC(=O)[C@H](Cc1ccccc1)NC(=O)[C@H](CCC(=O)O)NC(=O)[C@@H](N)Cc1ccccc1)C(=O)O | RP-HPLC | cell-free hydrogel in medium | day 12, 10% FBS | relative to: day 0 | intact peptide remaining | 5.3 ± 1.3% |
| CC(C)[C@H](NC(=O)CNC(=O)[C@H](CCC(N)=O)NC(=O)[C@H](C)N)C(=O)O |  | human | intravenous infusion, 45 mg/kg/h, 2 h infusion |  | subjects given concomitant medication | 0% |
| COC(=O)C[C@](O)(CCCC(C)(C)OC(C)=O)C(=O)O[C@@H]1C(OC)=C[C@]23CCCN2CCc2cc4c(cc2[C@H]13)OCO4 |  | CD1 mouse, bone marrow | oral, 1 mg/kg, 2 h |  | tissue concentration | 193 ng/mL |
| CC(=CCC(O)C(C)=Cc1csc(C)n1)CC=CC(C)C(O)C(C)C(=O)C(C)(C)C(O)CC(=O)O (stereo not drawn) |  | human, plasma | intravenous infusion, 42 mg/m2 KOS-1584, 3 h infusion, cycle 1 |  | AUC | 527 ± 461 ng·h/mL |
| O=C(O)CC[C@H](NC(=O)O[C@@H](CCCCNC(=O)c1ccc([18F])cc1)C(=O)O)C(=O)O |  | mouse, PC-3 PIP/flu xenografts, muscle | 60 min |  | tissue uptake | 0.27 ± 0.12 %ID/g |
| CC[C@H](C)[C@@H]1NC(=O)[C@H](CCCCN)NC(=O)[C@H](CCCCN)NC(=O)[C@H](Cc2ccc(O)cc2)NC(=O)[C@H](CC(C)C)NC(=O)[C@@H]2CCCN2C(=O)[C@H](C)NC(=O)CNC(=O)CNC(=O)[C@H](CO)NC(=O)CNC(=O)CNC(=O)[C@H](CO)NC(=O)[C@H](CCC(=O)O)NC(=O)[C@H](CC(C)C)NC(=O)[C@H](CC(C)C)NC(=O)[C@H](CCCCN)NC(=O)[C@H](CCCCN)NC(=O)[C@H]([C@@H](C)CC)NC(=O)[C@H]([C@@H](C)CC)NC(=O)[C@H](CCCCN)NC(=O)[C@H](CCCCN)NC(=O)[C@H](Cc2ccc(O)cc2)NC(=O)[C@H](CC(C)C)NC(=O)[C@@H]2CCCN2C(=O)[C@H](C)NC(=O)CNC(=O)[C@@H]2CSSC[C@H](NC(=O)[C@H](CC(C)C)NC(=O)[C@H](CCCCN)NC(=O)[C@H](CCCCN)NC(=O)[C@H]([C@@H](C)CC)NC1=O)C(=O)N[C@@H](CCC(=O)O)C(=O)N[C@@H](CO)C(=O)NCC(=O)N2 |  | 25% human serum | 50 µM, 24 h | relative to: 0 h control | remaining intact peptide | 58.6 ± 1.5% |

Excerpt of the above:
| Compound | test | system | setting | scale | quantity | result |
| --- | --- | --- | --- | --- | --- | --- |
| NCCCC[C@H](NC(=O)[C@H](Cc1ccccc1)NC(=O)[C@H](CCCCN)NC(=O)[C@H](Cc1ccccc1)NC(=O)[C@H](CCC(=O)O)NC(=O)[C@H](Cc1ccccc1)NC(=O)[C@H](CCC(=O)O)NC(=O)[C@@H](N)Cc1ccccc1)C(=O)O | RP-HPLC | cell-free hydrogel in medium | day 12, 10% FBS | relative to: day 0 | intact peptide remaining | 5.3 ± 1.3% |
| CC(C)[C@H](NC(=O)CNC(=O)[C@H](CCC(N)=O)NC(=O)[C@H](C)N)C(=O)O |  | human | intravenous infusion, 45 mg/kg/h, 2 h infusion |  | subjects given concomitant medication | 0% |
| COC(=O)C[C@](O)(CCCC(C)(C)OC(C)=O)C(=O)O[C@@H]1C(OC)=C[C@]23CCCN2CCc2cc4c(cc2[C@H]13)OCO4 |  | CD1 mouse, bone marrow | oral, 1 mg/kg, 2 h |  | tissue concentration | 193 ng/mL |
